Assay results collected from several papers.
Numbered parts are unrelated; each lists some results of a single study. Changes are numbered by the printed parent chain.

Series 1
Target: Interferon regulatory factor 7, full length, phosphomimetic (IRF7, Homo sapiens, UniProt Q92985, residues 1-503, S101K/S471D/S472D/S475D/S476D/S477D/S483D/S484D/S487D)
Technique: protein-binding microarray
Form: double-stranded DNA, one strand shown
Matrix: in vitro
Concentration: 250 nM
Notes: 60-bp whole probe
Together with: salmon DNA 0.4 mg/ml
Reference: random background probes
Direction: higher = stronger binding
Quantity: log fluorescence
Shared flanks, not repeated: GCCTAGCAC … GTCTTGATTCGCTTGACGCTGCTG
Target sequence (chain): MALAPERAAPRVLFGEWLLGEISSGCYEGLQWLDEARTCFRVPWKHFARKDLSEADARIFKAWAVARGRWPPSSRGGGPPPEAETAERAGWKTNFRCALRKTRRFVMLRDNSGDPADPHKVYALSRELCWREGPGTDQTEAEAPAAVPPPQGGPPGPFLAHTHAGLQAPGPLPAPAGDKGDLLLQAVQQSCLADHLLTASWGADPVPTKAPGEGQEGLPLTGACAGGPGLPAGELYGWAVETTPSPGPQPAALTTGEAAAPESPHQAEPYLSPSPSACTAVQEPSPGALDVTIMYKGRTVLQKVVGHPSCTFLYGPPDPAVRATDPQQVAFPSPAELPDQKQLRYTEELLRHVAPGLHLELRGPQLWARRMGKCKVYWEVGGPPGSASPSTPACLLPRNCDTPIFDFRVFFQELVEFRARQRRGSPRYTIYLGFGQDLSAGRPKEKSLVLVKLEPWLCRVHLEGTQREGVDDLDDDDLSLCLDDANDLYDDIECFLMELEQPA
Sequence = TTAGGTATTGGGTATCGGTTAGTGCTA; value = 0.733 z-score
Sequence = GACGGACTGCGTTTCCTGACGTGCTAG; value = -0.245 z-score
Sequence = TTAGGTATCGAGTATCGGTTAGTGCTA; value = 1.37 z-score
Sequence = CGATTACAGCTAGGTAGTGGGTGCTAG; value = 0.833 z-score
Sequence = ATAGATCTCAGACTGGATTAGTGCTAG; value = -0.251 z-score
Sequence = TTAGATATCAGTTTCGATTCGTGCTAG; value = 12.4 z-score
Sequence = GACGGTATCCTTCTCCTGAGGTGCTAG; value = 0.051 z-score
Sequence = GACGGTTTCGGTATCGGAACGTGCTAG; value = 11.1 z-score
Sequence = TCTCTGCTACCCTCTGAAAGTGTGCTA; value = -0.146 z-score
Sequence = GACGGGTTCGACACTGGGGACGTGCTA; value = 0.0695 z-score
Sequence = GACGGACTGGGGACTGTGGACGTGCTA; value = -0.635 z-score
Sequence = GACGGTCTCCTTATCCTAACGTGCTAG; value = 0.42 z-score
Sequence = TTAGGACTAGGGTTTCGGTTAGTGCTA; value = 5.88 z-score
Sequence = GACGATATCAGTCTCCAGACGTGCTAG; value = -0.179 z-score
Sequence = TTAGAACTGAGTCTCGATAAGTGCTAG; value = 0.303 z-score
Sequence = TTAGAACTGACTATCGATTAGTGCTAG; value = 0.0622 z-score
Sequence = GACGGACTGGGTCTCGGAACGTGCTAG; value = -0.0544 z-score

Series 2
Target: CCNE2, cyclin fold, Cln2 fusion (human)
Technique: yeast growth competition, sequencing
Matrix: yeast
Notes: weak parent motif
Reference: not given
Direction: higher = stronger binding
Quantity: normalised enrichment score
Starting sequence: SAMHD1 docking peptide (human); ASKSRVQLFKDDP; partner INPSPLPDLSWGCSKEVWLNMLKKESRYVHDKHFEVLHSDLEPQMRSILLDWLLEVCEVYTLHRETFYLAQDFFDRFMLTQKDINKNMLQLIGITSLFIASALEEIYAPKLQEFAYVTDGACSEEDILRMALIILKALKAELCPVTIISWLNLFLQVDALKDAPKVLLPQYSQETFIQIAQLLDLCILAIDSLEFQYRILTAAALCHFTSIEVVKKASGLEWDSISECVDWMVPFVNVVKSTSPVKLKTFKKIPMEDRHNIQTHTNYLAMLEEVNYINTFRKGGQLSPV
Change = V6H; value = -0.0909
Change = K10W; value = 0.0809
Change = K3L; value = 0.329
Change = S4N; value = 0.293
Change = S4W; value = 0.304
Change = S4R; value = 0.382
Change = Q7I; value = 0.0591
Change = Q7C; value = -0.0159
Change = R5Q; value = -0.171
Change = L8Q; value = -0.195
Change = D11Q; value = 0.0468
Change = K10D; value = -0.233
Change = K10S; value = 0.699

Series 3
Target: ABI1, truncated, D143A, DHFR fusion (Arabidopsis thaliana)
Technique: DHFR PCA, deep sequencing
Matrix: yeast
Notes: methotrexate growth selection, single substitutions
Together with: (+)-ABA 4.8 µM
Reference: wild-type fitted maximum
Direction: higher = stronger binding
Quantity: relative binding score
Starting sequence: PYL1, truncated, DHFR fusion (Arabidopsis thaliana); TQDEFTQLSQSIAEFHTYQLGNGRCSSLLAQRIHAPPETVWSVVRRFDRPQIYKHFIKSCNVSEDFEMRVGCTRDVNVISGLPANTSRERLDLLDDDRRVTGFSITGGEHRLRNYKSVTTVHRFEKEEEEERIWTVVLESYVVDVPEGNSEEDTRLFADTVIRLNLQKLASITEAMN
Change = Q7T; value = 70.5%
Change = Q167W; value = 14.2%
Change = P146M; value = 11.7%
Change = N149W; value = -8.26%
Change = H16S; value = -15%
Change = S63Q; value = 65.2%
Change = R155A; value = 11.7%
Change = E128T; value = 76.9%
Change = E125L; value = 70.2%
Change = I52V; value = 83.5%
Change = D153E; value = 91.9%

Series 4
Target: Centromere-binding protein 1, full length, N-terminal tag (CBF1, Saccharomyces cerevisiae, UniProt P17106, residues 1-351)
Sequence of UniProt P17106 (whole entry, looked up): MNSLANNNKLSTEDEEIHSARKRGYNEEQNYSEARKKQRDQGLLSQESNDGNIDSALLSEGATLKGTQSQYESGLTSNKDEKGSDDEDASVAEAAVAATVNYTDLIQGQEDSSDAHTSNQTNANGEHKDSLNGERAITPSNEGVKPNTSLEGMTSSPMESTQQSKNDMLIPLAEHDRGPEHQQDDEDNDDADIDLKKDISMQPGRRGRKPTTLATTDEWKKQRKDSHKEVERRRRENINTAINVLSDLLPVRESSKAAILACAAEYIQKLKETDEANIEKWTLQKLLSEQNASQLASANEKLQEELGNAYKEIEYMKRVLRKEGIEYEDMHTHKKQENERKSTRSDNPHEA
Technique: protein-binding microarray
Form: double-stranded DNA, one strand shown
Matrix: in vitro
Concentration: 0.8 µM
Notes: whole 60-bp probe, no competitor
Direction: higher = stronger binding
Quantity: fluorescence intensity
Shared flanks, not repeated: … GTCTTGATTCGCTTGACGCTGCTG
Sequence = GAAAACAGGAAAACCAACGTGAATTGCAAGCACTAG; value = 513 a.u.
Sequence = GAAAAAAGTAGTAGTCACGTAGCTTAATTGTATTAG; value = 688 a.u.
Sequence = GAAAACCTGGAATGCCACGAGGATGTATTTTCGTAG; value = 578 a.u.
Sequence = GAAAGAAATAAACATCACGTGATATGTAATACCTAG; value = 37000 a.u.
Sequence = CTATGCGTAGTATAGTGCGTGAGCTTATTGTGCTTC; value = 511 a.u.
Sequence = GAAAGATAAAAGCACCACCTTCTACCGGACCGTTAG; value = 503 a.u.
Sequence = CTAATTCCTGTCGACTGCCTGATGTCAGTATTGTTC; value = 536 a.u.
Sequence = CTACTTAAGCCACACCACGTAATTCTTGAAGACTTC; value = 547 a.u.
Sequence = CTATACCAATTCAGACTCACGAGAAAAAAAACTTTC; value = 635 a.u.
Sequence = CTATCTTATCATGGTAGTGATCACAAATAGATCTTC; value = 649 a.u.
Sequence = GAAAATTCAATGAGCCATGTGAAATAGCGCGGGTAG; value = 541 a.u.
Sequence = GAATTCTAACTAAGCATCAGAACATAATACAATTAG; value = 528 a.u.

Series 5
Target: RING finger protein unkempt homolog, zinc fingers 1-6, GST-SBP tag (UNK, Homo sapiens, UniProt Q9C0B0, residues 30-357)
Technique: RNA Bind-n-Seq
Form: RNA
Matrix: in vitro
Concentration: not given
Notes: RNA with constant flanks, human-mouse chimeric sites, ends assumed
Reference: input RNA pool
Direction: higher = stronger binding
Quantity: bound/input enrichment
Shared flanks, not repeated: GGGAGUUCUACAGUCCGACGAUC … CAACAGAGGAUUGAGCAUCA
Residues (chain): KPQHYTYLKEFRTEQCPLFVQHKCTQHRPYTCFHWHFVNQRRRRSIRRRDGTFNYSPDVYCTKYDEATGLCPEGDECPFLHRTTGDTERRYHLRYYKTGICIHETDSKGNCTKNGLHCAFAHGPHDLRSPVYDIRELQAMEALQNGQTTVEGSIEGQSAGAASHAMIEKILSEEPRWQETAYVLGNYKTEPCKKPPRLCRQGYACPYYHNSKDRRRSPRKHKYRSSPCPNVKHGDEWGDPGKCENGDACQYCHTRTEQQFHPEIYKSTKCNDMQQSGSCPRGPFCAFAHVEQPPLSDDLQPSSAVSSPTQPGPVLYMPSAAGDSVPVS
Sequence = GGAAGCACAAUGAUGGAGAUUGAUGGUGAUAAAGGCAAGCAGGGCGGGCCCACCUACUACAUAGACACCAAUGCCCUCCGCGUGCCCAGGGAGAACAUGGAGGCCAUCUCACCACUCAAG; value = 0.236 ratio
Sequence = CCCUCCCCGGGCCACCCGCCCGCCCAACUCCCAGCGGGAGAUCCAGGUUUCUUCUUAUUUCAUAGCAAAUAAGAAAAAUGUUCUACGCACAUUUUGUCCUCAGUAAACGAGGGCCUCUGG; value = 0.452 ratio
Sequence = CAUGUAUCUGCAGUACUUGAUGUGGACUACUCUCCCACUGGGAAGGAAUUUGUGUCUGCCAGCUUUGAUAAGUCUAUUCGAAUCUUUCCUGUGGACAAGAGCCGAAGCAGGGAAGUGUAU; value = 0.369 ratio
Sequence = AUAGAUGAAAUUGAUGUGGACCAGGAAGGAAUUGCUGAAAUGAUCCUGGAUGAAAAUGCUAUAGCUCAGGUCCCACGCCCUGGCACAUCUUUGAAACUCCCUGGCACUAACCAAACAGGA; value = 0.326 ratio
Sequence = GUGCCCUUCUCGCUGCUCCUGCGGGGCAGCUGGGAACCAUUCCGGGACUGGUACCCUGCACACAGCCGCCUCUUCGAUCAAGCUUUCGGGGUGCCCCGGUUGCCCGAGGAGUGGUCGCAG; value = 0.0635 ratio
Sequence = CUGUGCGGGUGACUGUCGGGAGCCGUCUGGAGUUCCCGCCGGAGCGCGGCCAGACUAAUUUUAGAAAAUGCCAAGUAGGAAGUUUGUUGAGGGUGAAGUGGUCAGAGGCCGAUGGCCUGG; value = 2.44 ratio

A few entries again (series 4):
Sequence = GAAAGATAAAAGCACCACCTTCTACCGGACCGTTAG; value = 503 a.u.
Sequence = CTAATTCCTGTCGACTGCCTGATGTCAGTATTGTTC; value = 536 a.u.
Sequence = CTACTTAAGCCACACCACGTAATTCTTGAAGACTTC; value = 547 a.u.
Sequence = CTATACCAATTCAGACTCACGAGAAAAAAAACTTTC; value = 635 a.u.
Sequence = CTATCTTATCATGGTAGTGATCACAAATAGATCTTC; value = 649 a.u.
Sequence = GAAAATTCAATGAGCCATGTGAAATAGCGCGGGTAG; value = 541 a.u.
